Experimental data of several laboratories.
± marks the error that the study gave.

COc1cccc2c1C(=O)c1c(O)c3c(c(O)c1C2=O)C[C@@](O)(C(=O)CO)C[C@@H]3O[C@H]1C[C@H](N)[C@H](O)[C@H](C)O1  AUC (mouse, E0771 tumour-bearing, kidney; intravenous, 92 µmol/kg): 6020 µM·h
COc1ccc2c(c1)c(CC(=O)O)c(C)n2C(=O)c1ccc(Cl)cc1  AUC (male ICR mouse, liver; oral, 3 mg/kg, 24 h): 35800 ng·h/mL
Cc1cc(Nc2cc3ncccc3c(N[C@@H]3C[C@H]4CC[C@@H](C3)N4CCC#N)n2)n[nH]1  AUC (male BALB/c mouse, colon; oral, 10 mg/kg, 0 to 24 h): 22.2 ± 21.9 µM·h
Cc1ccc(-c2cc(C(F)(F)F)nn2-c2ccc(S(N)(=O)=O)cc2)cc1  AUC (male ICR mouse, kidney; oral, 3 mg/kg, 24 h): 46300 ng·h/mL
CNCCCC1(c2ccc(F)cc2)OCc2cc(C#N)ccc21 (stereo not drawn)  AUC (CD-1 mouse, pregnant female, gestation day 18, maternal serum; intraperitoneal, 20 mg/kg citalopram, single dose): 611 ± 66.4 ng·h/mL
CC[C@H](C)[C@@H]1NC(=O)[C@H](Cc2ccc(O)cc2)NC(=O)[C@@H](N)CSSC[C@@H](C(=O)N2CCC[C@H]2C(=O)N[C@@H](CC(C)C)C(=O)NCC(N)=O)NC(=O)[C@H](CC(N)=O)NC(=O)[C@H](CCC(N)=O)NC1=O  AUC (microdialysis, RIA; male knockout mouse, hippocampus ECF; i.p., 12 µg): 98.7 ± 38.8 pg·30 min/sample
CN(C)CCCC1(c2ccc(F)cc2)OCc2cc(C#N)ccc21 (racemic)  AUC (CD-1 mouse, pregnant female, gestation day 14, maternal serum; intraperitoneal, 20 mg/kg): 1390 ± 48 ng·h/mL
CC(C)[C@H](N)C(=O)OCC1(CO)C/C1=C/n1cnc2c(=O)[nH]c(N)nc21.Cl (mixture of isomers)  AUC (measured: prodrug; Swiss-Webster mouse (male), plasma; intravenous, 24.6 mg/kg, two-compartment model): 1620 ng·h/mL
OC[C@H]1O[C@@H](c2ccc(Cl)c(Cc3ccc(O[C@H]4CCOC4)cc3)c2)[C@H](O)[C@@H](O)[C@@H]1O  AUC (male ICR mouse, plasma; oral, 3 mg/kg, 24 h): 626 ng·h/mL
CC(=O)Nc1cccc(-n2c(=O)n(C3CC3)c(=O)c3c(Nc4ccc(I)cc4F)n(C)c(=O)c(C)c32)c1  AUC (athymic nude mouse, tumour-bearing, plasma; oral, 5 mg/kg, single dose, together with: sapanisertib 2 mg/kg): 644 ng·h/mL
O=C(N[C@@H](Cn1ccnc1)c1ccc(Cl)cc1Cl)c1ccc(-c2nnc(-c3ccccc3)o2)cc1  AUC (mouse, plasma; oral, 25 mg/kg, DGAT formulation): 163 ng·h/mL
OC[C@H]1O[C@@H](c2ccc(F)c(Cc3cc4ccccc4s3)c2)[C@H](O)[C@@H](O)[C@@H]1O  AUC (male ICR mouse, kidney; oral, 3 mg/kg, 24 h): 23400 ng·h/mL

A few entries again:
COc1cccc2c1C(=O)c1c(O)c3c(c(O)c1C2=O)C[C@@](O)(C(=O)CO)C[C@@H]3O[C@H]1C[C@H](N)[C@H](O)[C@H](C)O1  AUC (mouse, E0771 tumour-bearing, kidney; intravenous, 92 µmol/kg): 6020 µM·h
